Assay results of several laboratories.
Every numbered part comes from another study and shows a few of its results, in no order. Positions count from the first letter of the parent shown.

Sample 1 — target: CCND3, cyclin fold, Cln2 fusion (human); method: yeast growth competition, sequencing; medium: yeast; notes: weak parent motif; reference: not given; reading: higher = stronger binding; endpoint: normalised enrichment score
Starting sequence: PKMYT1 docking peptide (human); SFEPRNLLSLFED; partner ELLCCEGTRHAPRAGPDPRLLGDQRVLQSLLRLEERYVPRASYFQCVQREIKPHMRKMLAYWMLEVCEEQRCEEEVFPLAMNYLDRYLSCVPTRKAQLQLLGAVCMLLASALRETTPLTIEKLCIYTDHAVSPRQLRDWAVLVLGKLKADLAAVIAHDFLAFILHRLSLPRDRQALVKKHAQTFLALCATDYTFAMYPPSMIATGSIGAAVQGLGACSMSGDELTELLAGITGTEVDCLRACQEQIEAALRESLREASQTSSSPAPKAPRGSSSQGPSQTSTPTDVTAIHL
SFEPQNLLSLFED [R5Q]: 0.0751
SFMPRNLLSLFED [E3M]: 0.165
SFEPYNLLSLFED [R5Y]: 0.128
SKEPRNLLSLFED [F2K]: -0.0226
SFEPRNLLSLFEC [D13C]: 0.0869
SFEPRQLLSLFED [N6Q]: 0.122
SFEPRNLISLFED [L8I]: 0.0921
SFEPRNLLNLFED [S9N]: 0.138
PFEPRNLLSLFED [S1P]: 0.0519
SFIPRNLLSLFED [E3I]: 0.0162
SFEPRNLLSLFEP [D13P]: 0.154
SFEPRNMLSLFED [L7M]: 0.0698
WFEPRNLLSLFED [S1W]: 0.136

Sample 2 — method: RNA Bind-n-Seq; form: RNA; medium: in vitro; tested at: 200 nM; notes: whole 134-nt RNA, ends assumed; added: 150 mM KCl; reference: input library; reading: higher = stronger binding; endpoint: log2 enrichment
Target: Ras GTPase-activating protein-binding protein 1, full length (G3BP1, Homo sapiens, UniProt Q13283)
UniProt Q13283, sequence (whole entry, looked up): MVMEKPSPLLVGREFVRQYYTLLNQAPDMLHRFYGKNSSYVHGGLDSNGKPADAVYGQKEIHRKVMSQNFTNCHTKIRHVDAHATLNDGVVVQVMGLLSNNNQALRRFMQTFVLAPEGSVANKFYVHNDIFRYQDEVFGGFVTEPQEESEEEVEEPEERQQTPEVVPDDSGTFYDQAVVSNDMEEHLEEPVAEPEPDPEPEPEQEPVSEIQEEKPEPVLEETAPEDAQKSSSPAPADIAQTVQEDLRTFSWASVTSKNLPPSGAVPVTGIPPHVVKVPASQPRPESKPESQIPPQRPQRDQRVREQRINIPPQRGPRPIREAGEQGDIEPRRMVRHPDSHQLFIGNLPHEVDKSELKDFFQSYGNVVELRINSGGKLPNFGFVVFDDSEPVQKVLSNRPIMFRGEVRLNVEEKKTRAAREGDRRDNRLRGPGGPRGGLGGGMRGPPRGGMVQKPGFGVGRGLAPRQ
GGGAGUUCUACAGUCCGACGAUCUCAAGUCCUGUGCUACACAUCGUAUGUACCGAAUCGGGUUUGGGAGGGUUUGGGAAAGUAUUAUGUUACGCCGUUCGGAUCUGCACUUCCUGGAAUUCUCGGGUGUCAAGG: 0.966
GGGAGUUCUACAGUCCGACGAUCUGGCCCUGGUGGCAUGCGGGGAGGAAGAGGUGGCCUCAUGGAUCGUUGUGGUCCCGGUGGAAUGUUCAGAGGUGGCCGUGGUGGAGACAGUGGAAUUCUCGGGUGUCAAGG: 0.189
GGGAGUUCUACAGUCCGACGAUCAAGUCCUGUGCUACACAUCGUAUGUACCGAAUCGGGUGGGAAAAAGGGUUUUUGGGAAAGUAUUAUGUUACGCCGUUCGGAUCUGCACUUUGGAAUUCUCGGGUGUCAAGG: 0.331
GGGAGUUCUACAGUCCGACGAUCGUCCUGUGCUACACAUCGUAUGUACCGAAUCGGGGUGGGGUUUUUGGGGUUUUUGGGGAAAGUAUUAUGUUACGCCGUUCGGAUCUGCACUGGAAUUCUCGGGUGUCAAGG: 0.378
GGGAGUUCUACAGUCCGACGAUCUUGUGUUCGUGAAUUGUAACUCCAGAAGCAAUGCCUGUACAAGCUCCACAAUGGACGGAUUUCCUCUCCUGCCCAAUUUGCACUCAGACUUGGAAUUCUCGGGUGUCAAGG: 1.14
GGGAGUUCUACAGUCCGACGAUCACCCUGCAGGUGGGCAUCUUUGGGAAGUGGGGCAAGGGGGGGAUAGGGAGGGGGGUAACACUUUGGGAACAGGUGGUCCCAGGUCGUUUCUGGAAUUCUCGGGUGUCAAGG: 1.39
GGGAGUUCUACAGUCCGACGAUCCAAGUCCUGUGCUACACAUCGUAUGUACCGAAUCGGUUUUUUUGGAGGUUUUUGGAAAGUAUUAUGUUACGCCGUUCGGAUCUGCACUUCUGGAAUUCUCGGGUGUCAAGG: -0.694
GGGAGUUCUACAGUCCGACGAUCGUCCUGUGCUACACAUCGUAUGUACCGAAUCGGGGUUUGGGGAAAAAGGGGUUUGGGGAAAGUAUUAUGUUACGCCGUUCGGAUCUGCACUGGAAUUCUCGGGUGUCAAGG: 0.77
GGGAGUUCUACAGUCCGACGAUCUAACUUUAGAGGAGGAUCUGAUGGAUAUGGCAGUGGACGUGGAUUUGUGGAUGGCUAUAAUGGGUAUGGAGGAGGACCUGGAGGUGGCAAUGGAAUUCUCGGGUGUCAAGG: 0.414
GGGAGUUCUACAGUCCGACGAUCUCAAGUCCUGUGCUACACAUCGUAUGUACCGAAUCGGAAAAAAAGGAAAGGAGGAAAGUAUUAUGUUACGCCGUUCGGAUCUGCACUUCCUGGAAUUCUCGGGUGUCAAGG: -0.91

Sample 3 — method: protein binding microarray; form: double-stranded DNA, one strand shown; medium: in vitro; tested at: not given; reference: not given; reading: higher = stronger binding; endpoint: E-score
Target: Histone acetyltransferase KAT6A, both winged helices, GST fusion (KAT6A, Homo sapiens, UniProt Q92794, residues 1-181)
Notes: 8-mer, flanks averaged, mean of 2 arrays, mostly near background
Construct (chain): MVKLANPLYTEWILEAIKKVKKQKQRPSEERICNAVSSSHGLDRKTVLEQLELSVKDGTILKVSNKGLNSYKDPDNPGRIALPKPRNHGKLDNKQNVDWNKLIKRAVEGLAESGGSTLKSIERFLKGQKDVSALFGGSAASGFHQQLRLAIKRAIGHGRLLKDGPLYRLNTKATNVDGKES
AGCTTAGG: -0.187
TCACGCAA: 0.0739
GCCGCTAC: 0.279
AATCAGTA: -0.024
AAAATCCG: 0.0383
TAAGCGGA: 0.0978
AGAGTATC: -0.0293
CGACAACC: 0.0416
GAAGCTTA: -0.126
ATTCAGGC: -0.124
ACAGTTAA: 0.00965
CCGCCATC: 0.0911
AGGAAGAA: -0.137
CCAGCGAG: -0.0963
ACTCATGG: -0.0716
CCGCACCC: 0.17
ACCTGCTA: -0.0855
CTCTGTCC: 0.0178
GAGGGCAA: -0.095
GGGCTCAA: 0.038
CCGCTAAC: 0.157
ACTGCTCT: -0.11
AGTGAGGC: -0.175
ACGCAAAG: -0.0295
CGAGCGGC: 0.277

Sample 4 — method: RNA Bind-n-Seq; form: RNA; medium: in vitro; tested at: not given; notes: RNA with constant flanks, ends assumed; reference: input RNA pool; reading: higher = stronger binding; endpoint: bound/input enrichment
Target: RING finger protein unkempt homolog, zinc fingers 1-6, GST-SBP tag (UNK, Homo sapiens, UniProt Q9C0B0, residues 30-357)
Target sequence (chain): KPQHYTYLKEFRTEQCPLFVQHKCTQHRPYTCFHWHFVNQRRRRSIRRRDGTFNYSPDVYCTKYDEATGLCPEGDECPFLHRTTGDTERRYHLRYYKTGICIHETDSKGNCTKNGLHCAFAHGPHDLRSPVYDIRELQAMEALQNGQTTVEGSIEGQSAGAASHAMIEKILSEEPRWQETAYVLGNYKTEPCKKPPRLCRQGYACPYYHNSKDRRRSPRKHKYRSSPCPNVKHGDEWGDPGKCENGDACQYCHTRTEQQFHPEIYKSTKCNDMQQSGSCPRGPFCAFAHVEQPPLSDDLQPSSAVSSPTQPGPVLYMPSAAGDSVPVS
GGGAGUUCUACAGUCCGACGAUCGUUCCGGAAAUCAUGGAUCGGAUCUACAAAAAUGUCAUGAAUAAAGUCAGUGAAAUGAGCCGUUUUCAACGUAAUCUGUUUAUUCUGGCCUAUAAUUACAAAAUGGAACAGAUUUCAAAACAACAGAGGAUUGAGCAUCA: 0.242 ratio
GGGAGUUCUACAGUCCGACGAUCACGCGAUGACAGUGACCUGGCCAUCGGCACUCUCCUGGGAGGACUGGCUCAGGGCCAUUUAACCGCUACAGCUUCAUGCCUCUUGCCACCAAUCAGACAUUAGCAAUUCCUUUCUCUUUUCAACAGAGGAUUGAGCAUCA: 0.379 ratio
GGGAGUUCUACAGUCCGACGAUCUGUUUUGCACGUAUGGUUGGAUGUACUGGAAAAGUCAUAGGAAUUGAUCACAUUAAAGAGCCCGCCGAUGACUCAGUAAAUAAUGUCAGGAAGGACGAUCCAACACUUCUGUCUUCAGGGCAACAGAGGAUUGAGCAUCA: 0.247 ratio
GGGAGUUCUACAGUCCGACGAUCGGCUAGCCCCAGACCCAAAGAAUAAGAGAUAGCGAAGUUACUACAGACGUGGUCAGGGACAUCCGAAGGAGGCAGACUGCUACAGUCAGAGGCCAGGCAGUACAUCUCAGAGACAAGCUGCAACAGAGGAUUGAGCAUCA: 0.34 ratio
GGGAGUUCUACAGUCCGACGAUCACUGGAGAGAAACCUUACAAAUGUAGUGAAUGUGAGAAAUCCUUUACAGUAGGCUCGGAUCUCCGAAUGCAUCAAAAAAUUCAUACUGGAGAGAAACCUUACAAAUGUAGUGACUGUGAUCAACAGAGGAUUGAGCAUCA: 0.477 ratio
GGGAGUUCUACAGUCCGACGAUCUGACUGUUGCAGGGUGGGUGGUUUCCAAACGAGUCUAAGUUAUGAGUGCCCAGACUUCCCCCGCAGAGAAGGGCCUAAAUCCGGGGCUCAUGUGCCAGGAGAGUUAUGCAUGCAGUGGGACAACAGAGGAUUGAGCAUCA: 0.244 ratio
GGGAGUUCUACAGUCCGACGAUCGACUAUACAAUCCCAGAUGAGUAUAGAAUUGGACCAUAUCAGCCCAAUGUUCCUGUUGGUACCGACUAUGUGAUACCUAAAACAGGGUUUUACUGUAAGCUGUGUUCACUCUUUUAUACACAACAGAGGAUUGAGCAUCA: 0.0928 ratio
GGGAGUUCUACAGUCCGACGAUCAUAACAAUUGAUGUUUGUUUUCUGUUUGAUUUUAAACAGAGAAAAAAUAAAAGGGGGUAACCGCUCCUUUUUUCUUCUUUCUUUUUUUUUUUCAUUUCAAAAUUGCUGCCAGUGUUUUCACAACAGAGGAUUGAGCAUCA: 0.556 ratio
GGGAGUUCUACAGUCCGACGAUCAGGGAUAUUGGUGCUGGAAAGGGAAAAUACUAUGCUGUCAAUUUUCCCAUGAGAGAUGGUACCGAUGAUGAAUCAUAUGGACAAAUUUUUAAGCCUAUCAUCUCAAAAGUGAUGGAGAUGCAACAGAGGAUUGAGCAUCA: 0.18 ratio
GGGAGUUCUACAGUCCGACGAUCGAUAUUCUUCUUCUCAUUGUCCGUCUGGCUGUGUUAAUGGCUGUGACCCUGACAGUACCAGCCGUUAUUUUCCCAAUCCGGAGUUCUGUAACUCACUUGUUGUGUGCAUCAAAAGAUUUCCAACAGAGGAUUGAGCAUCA: 0.175 ratio
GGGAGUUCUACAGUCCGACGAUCGAAUACAUUGAUCAAGGUCGGAAUCCCCAGCUCUACACCAAAGAAUGCCUGGAGAGGGCUCCCGCUAAAAACGAGCAAGUCAAGGGCAAGAUCGACACAAUGAAGAAAUUUAAAAGCCUACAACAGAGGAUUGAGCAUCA: 0.275 ratio

Some of these lines once more (sample 4):
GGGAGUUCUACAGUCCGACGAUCGACUAUACAAUCCCAGAUGAGUAUAGAAUUGGACCAUAUCAGCCCAAUGUUCCUGUUGGUACCGACUAUGUGAUACCUAAAACAGGGUUUUACUGUAAGCUGUGUUCACUCUUUUAUACACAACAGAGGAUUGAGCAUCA: 0.0928 ratio
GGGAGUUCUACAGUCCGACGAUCAGGGAUAUUGGUGCUGGAAAGGGAAAAUACUAUGCUGUCAAUUUUCCCAUGAGAGAUGGUACCGAUGAUGAAUCAUAUGGACAAAUUUUUAAGCCUAUCAUCUCAAAAGUGAUGGAGAUGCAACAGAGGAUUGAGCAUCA: 0.18 ratio
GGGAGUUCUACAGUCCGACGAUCGUUCCGGAAAUCAUGGAUCGGAUCUACAAAAAUGUCAUGAAUAAAGUCAGUGAAAUGAGCCGUUUUCAACGUAAUCUGUUUAUUCUGGCCUAUAAUUACAAAAUGGAACAGAUUUCAAAACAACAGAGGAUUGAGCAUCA: 0.242 ratio
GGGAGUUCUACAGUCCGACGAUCGAUAUUCUUCUUCUCAUUGUCCGUCUGGCUGUGUUAAUGGCUGUGACCCUGACAGUACCAGCCGUUAUUUUCCCAAUCCGGAGUUCUGUAACUCACUUGUUGUGUGCAUCAAAAGAUUUCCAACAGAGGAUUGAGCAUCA: 0.175 ratio
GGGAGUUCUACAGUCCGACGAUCGGCUAGCCCCAGACCCAAAGAAUAAGAGAUAGCGAAGUUACUACAGACGUGGUCAGGGACAUCCGAAGGAGGCAGACUGCUACAGUCAGAGGCCAGGCAGUACAUCUCAGAGACAAGCUGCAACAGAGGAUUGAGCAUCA: 0.34 ratio
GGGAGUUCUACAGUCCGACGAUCUGACUGUUGCAGGGUGGGUGGUUUCCAAACGAGUCUAAGUUAUGAGUGCCCAGACUUCCCCCGCAGAGAAGGGCCUAAAUCCGGGGCUCAUGUGCCAGGAGAGUUAUGCAUGCAGUGGGACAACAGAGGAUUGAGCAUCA: 0.244 ratio
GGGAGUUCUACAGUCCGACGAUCACGCGAUGACAGUGACCUGGCCAUCGGCACUCUCCUGGGAGGACUGGCUCAGGGCCAUUUAACCGCUACAGCUUCAUGCCUCUUGCCACCAAUCAGACAUUAGCAAUUCCUUUCUCUUUUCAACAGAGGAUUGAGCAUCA: 0.379 ratio
